Assay results pooled from the literature.
Each numbered part is a random draw from the data of one study; scales do not carry over between parts. Substitutions count along the parent as printed.
Chain of UniProt Q15349 (whole entry, looked up): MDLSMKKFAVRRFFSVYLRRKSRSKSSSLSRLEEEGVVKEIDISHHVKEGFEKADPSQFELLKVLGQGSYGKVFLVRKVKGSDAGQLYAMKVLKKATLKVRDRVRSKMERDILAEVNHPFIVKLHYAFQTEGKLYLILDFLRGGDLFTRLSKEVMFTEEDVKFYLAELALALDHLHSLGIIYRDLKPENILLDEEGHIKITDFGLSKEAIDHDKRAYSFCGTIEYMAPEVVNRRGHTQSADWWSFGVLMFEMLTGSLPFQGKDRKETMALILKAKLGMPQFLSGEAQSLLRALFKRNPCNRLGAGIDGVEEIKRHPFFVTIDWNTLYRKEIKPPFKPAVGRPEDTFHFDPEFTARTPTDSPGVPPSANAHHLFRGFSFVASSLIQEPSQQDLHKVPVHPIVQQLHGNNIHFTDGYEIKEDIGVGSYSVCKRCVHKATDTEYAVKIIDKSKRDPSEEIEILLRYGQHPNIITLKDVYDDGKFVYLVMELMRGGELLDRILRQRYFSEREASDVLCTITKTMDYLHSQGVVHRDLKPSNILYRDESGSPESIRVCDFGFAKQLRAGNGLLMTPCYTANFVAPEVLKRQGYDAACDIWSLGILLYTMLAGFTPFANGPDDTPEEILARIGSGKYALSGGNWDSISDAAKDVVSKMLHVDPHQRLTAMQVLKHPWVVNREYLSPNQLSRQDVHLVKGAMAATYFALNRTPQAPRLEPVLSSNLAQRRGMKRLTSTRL
Chain of UniProt P78368 (whole entry, looked up): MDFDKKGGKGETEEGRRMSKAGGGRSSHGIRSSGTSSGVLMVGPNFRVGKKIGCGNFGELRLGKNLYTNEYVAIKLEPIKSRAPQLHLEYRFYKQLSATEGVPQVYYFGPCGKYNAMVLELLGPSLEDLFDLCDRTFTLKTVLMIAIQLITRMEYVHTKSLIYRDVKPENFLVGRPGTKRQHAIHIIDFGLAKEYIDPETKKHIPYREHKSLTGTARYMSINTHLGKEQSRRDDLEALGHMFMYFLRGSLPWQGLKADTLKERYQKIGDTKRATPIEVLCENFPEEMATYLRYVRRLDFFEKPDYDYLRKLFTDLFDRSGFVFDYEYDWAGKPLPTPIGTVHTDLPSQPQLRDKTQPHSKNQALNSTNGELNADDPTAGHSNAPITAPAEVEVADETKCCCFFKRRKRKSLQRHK
Chain of UniProt P49137 (whole entry, looked up): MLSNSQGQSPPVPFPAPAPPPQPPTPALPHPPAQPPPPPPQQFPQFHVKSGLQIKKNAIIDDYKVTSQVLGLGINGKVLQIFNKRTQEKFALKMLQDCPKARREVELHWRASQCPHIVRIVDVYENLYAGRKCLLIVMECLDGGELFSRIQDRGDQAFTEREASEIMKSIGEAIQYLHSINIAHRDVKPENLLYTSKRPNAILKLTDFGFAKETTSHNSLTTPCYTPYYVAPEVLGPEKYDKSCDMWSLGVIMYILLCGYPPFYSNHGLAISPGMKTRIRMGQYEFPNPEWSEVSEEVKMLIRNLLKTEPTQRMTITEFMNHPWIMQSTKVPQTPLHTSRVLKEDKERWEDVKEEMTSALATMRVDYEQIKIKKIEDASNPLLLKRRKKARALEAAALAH
Chain of UniProt P10398 (whole entry, looked up): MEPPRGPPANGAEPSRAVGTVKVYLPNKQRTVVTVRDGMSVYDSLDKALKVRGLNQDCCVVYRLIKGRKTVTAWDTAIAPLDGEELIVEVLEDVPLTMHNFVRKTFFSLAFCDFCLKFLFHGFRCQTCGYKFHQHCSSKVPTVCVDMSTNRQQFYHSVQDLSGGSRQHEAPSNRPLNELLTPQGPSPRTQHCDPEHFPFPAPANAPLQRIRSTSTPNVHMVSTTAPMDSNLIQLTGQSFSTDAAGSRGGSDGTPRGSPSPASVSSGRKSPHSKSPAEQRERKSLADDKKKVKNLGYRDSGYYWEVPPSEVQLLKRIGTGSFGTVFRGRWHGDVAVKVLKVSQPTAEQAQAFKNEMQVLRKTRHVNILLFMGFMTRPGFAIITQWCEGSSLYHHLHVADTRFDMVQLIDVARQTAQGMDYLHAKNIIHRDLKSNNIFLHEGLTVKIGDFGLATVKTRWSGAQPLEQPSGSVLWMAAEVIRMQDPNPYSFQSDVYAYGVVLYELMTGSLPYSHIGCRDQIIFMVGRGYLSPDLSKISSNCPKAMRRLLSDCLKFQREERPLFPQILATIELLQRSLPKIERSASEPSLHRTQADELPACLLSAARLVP
Chain of UniProt Q13464 (whole entry, looked up): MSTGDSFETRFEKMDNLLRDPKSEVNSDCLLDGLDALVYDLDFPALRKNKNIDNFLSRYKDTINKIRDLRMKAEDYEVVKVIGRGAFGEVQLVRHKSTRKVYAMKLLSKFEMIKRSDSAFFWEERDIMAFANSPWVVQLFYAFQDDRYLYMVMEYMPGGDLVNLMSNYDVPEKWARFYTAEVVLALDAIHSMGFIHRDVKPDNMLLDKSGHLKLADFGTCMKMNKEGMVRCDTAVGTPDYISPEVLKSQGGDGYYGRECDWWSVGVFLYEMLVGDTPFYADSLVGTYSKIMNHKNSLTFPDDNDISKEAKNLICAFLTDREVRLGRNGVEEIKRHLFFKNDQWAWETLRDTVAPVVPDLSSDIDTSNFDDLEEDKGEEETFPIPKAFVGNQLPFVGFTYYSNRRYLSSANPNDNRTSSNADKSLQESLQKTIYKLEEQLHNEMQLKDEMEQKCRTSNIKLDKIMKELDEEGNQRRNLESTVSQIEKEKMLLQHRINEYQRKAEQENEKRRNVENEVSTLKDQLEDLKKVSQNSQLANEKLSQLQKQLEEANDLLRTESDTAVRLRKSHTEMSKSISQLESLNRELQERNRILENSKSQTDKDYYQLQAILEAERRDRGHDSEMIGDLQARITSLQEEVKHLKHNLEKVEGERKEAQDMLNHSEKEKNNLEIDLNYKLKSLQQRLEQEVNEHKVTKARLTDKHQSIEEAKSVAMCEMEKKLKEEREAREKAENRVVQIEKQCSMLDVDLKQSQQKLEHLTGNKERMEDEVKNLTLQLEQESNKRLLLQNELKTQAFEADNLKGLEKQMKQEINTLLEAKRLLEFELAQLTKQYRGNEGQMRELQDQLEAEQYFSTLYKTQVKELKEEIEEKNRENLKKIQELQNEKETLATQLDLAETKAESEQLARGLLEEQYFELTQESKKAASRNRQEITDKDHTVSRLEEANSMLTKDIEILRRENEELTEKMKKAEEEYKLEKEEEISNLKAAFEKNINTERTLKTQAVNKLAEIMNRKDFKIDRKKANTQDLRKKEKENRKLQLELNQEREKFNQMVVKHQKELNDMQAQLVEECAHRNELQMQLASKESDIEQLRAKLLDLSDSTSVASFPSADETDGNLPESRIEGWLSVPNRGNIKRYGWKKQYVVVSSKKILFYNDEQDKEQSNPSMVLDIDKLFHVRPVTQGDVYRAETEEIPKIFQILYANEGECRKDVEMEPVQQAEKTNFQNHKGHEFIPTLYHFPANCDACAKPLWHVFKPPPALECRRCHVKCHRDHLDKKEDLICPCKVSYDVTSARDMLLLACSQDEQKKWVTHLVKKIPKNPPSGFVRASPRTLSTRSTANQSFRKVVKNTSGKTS
Chain of UniProt Q9NRH2 (whole entry, looked up): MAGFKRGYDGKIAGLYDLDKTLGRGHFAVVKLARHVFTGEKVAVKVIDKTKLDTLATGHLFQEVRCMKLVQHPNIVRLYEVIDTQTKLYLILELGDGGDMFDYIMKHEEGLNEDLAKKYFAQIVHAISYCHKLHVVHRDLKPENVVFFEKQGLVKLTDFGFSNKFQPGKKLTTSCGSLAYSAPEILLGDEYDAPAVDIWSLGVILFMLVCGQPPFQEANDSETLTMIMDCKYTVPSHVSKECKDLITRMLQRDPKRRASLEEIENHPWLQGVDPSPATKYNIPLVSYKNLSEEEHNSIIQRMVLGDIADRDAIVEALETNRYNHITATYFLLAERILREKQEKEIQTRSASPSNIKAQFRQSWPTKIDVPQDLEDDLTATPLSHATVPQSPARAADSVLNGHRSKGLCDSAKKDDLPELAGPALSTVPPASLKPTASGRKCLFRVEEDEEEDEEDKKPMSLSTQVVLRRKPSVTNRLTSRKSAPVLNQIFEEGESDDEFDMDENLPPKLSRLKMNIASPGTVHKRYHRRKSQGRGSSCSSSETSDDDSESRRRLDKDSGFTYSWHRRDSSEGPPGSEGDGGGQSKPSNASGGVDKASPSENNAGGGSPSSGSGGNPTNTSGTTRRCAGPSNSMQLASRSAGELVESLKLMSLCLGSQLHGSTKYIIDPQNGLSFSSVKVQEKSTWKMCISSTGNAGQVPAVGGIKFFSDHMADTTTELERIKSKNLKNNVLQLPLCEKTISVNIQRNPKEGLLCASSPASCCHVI

Set 1
Target: Eukaryotic initiation factor 4A-I (EIF4A1, Homo sapiens, UniProt P60842, residues 1-406, full length assumed)
Chain of UniProt P60842 (whole entry, looked up): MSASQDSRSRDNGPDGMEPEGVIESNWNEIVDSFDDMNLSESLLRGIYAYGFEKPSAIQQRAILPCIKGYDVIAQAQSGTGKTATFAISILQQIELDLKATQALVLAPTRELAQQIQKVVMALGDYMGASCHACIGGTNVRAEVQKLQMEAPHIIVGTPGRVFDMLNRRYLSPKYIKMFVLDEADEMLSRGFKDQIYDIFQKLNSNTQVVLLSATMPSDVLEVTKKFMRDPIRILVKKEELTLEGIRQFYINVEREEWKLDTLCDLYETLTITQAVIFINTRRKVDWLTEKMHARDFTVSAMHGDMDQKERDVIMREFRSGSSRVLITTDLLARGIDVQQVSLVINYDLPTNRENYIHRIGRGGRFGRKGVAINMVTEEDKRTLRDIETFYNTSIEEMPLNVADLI
Method: RNA Bind-n-Seq
Form: RNA
Medium: in vitro
Concentration: 15 pmol
Notes: 4-mer, random 30-nt RNA, single round
With: 3 µM DMDA-PatA, 2 mM AMP-PNP
Relative to: input library
Reading: higher = stronger binding
Oligonucleotide | 4-mer enrichment [fold]
GUCC | 0.727
UUCA | 0.615
AGUU | 1.31
UGAU | 1.28
CCGC | 0.487
GAUG | 1.33
GAGC | 1.02
AGCG | 1.1

Set 2
Compound: O=C1Cc2c([nH]c3ccc(Br)cc23)-c2ccccc2N1
Observed: enzyme activity
Action: inhibitor
Concentration: 0.5 µM
Relative to: control
target | remaining activity [%]
Fibroblast growth factor receptor 1 (FGFR1, Homo sapiens, UniProt P11362) | 99.4
MAP kinase-activated protein kinase 2 (MAPKAPK2, Homo sapiens, UniProt P49137) | 101
Glycogen synthase kinase-3 beta (GSK3B, Homo sapiens, UniProt P49841) | 19.7
Activin receptor type-1B (ACVR1B, Homo sapiens, UniProt P36896) | 99.8
Mitogen-activated protein kinase kinase kinase 5 (MAP3K5, Homo sapiens, UniProt Q99683) | 99.2
Casein kinase I isoform gamma-2 (CSNK1G2, Homo sapiens, UniProt P78368) | 102
Tyrosine-protein kinase ABL2 (ABL2, Homo sapiens, UniProt P42684) | 84.9
Mitogen-activated protein kinase 3 (MAPK3, Homo sapiens, UniProt P27361) | 100
Casein kinase I isoform gamma-3 (CSNK1G3, Homo sapiens, UniProt Q9Y6M4) | 103
Serine/threonine-protein kinase A-Raf (ARAF, Homo sapiens, UniProt P10398) | 104
Ribosomal protein S6 kinase alpha-2 (RPS6KA2, Homo sapiens, UniProt Q15349) | 94.9
Serine/threonine-protein kinase Nek1 (NEK1, Homo sapiens, UniProt Q96PY6) | 95.4
Rhodopsin kinase GRK7 (GRK7, Homo sapiens, UniProt Q8WTQ7) | 100
Tyrosine-protein kinase FRK (FRK, Homo sapiens, UniProt P42685) | 97.4

Set 3
Variant: T6F
Target: ABI1, truncated, D143A, DHFR fusion (Arabidopsis thaliana)
Method: DHFR PCA, deep sequencing
Medium: yeast
Notes: methotrexate growth selection, single substitutions
Relative to: wild-type fitted maximum
Reading: higher = stronger binding
Starting sequence: PYL1, truncated, DHFR fusion (Arabidopsis thaliana); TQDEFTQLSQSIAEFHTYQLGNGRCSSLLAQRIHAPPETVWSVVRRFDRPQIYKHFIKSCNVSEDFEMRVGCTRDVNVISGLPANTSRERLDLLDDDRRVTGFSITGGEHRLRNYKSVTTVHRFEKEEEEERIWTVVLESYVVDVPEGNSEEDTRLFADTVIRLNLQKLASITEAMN; partner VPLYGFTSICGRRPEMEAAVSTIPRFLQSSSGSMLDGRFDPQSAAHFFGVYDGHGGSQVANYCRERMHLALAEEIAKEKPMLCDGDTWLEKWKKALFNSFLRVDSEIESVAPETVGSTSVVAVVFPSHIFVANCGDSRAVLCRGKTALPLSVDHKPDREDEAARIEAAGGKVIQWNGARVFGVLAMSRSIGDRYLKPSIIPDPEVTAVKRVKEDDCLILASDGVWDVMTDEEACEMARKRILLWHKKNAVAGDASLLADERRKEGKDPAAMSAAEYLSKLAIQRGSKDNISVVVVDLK
conditions | relative binding score [%]
with: (+)-ABA 0 µM | 38.3
with: (+)-ABA 200 µM | 96.6
with: (+)-ABA 1.4 µM | 32.5
with: (+)-ABA 58 µM | 85.9
with: (+)-ABA 2500 µM | 105
with: (+)-ABA 0.0091 µM | 44.2

Set 4
SMILES: O=C(Nc1cnc(Oc2ccc(F)cc2)nc1)N1CCc2ncccc2[C@@H]1c1ccc(F)cc1
Observed: cell-free assay
Method: competition with immobilised ligand
Concentration: 1 µM
target | remaining binding [%]
Rho-associated protein kinase 1 (ROCK1, Homo sapiens, UniProt Q13464) | 100
SNF-related serine/threonine-protein kinase (SNRK, Homo sapiens, UniProt Q9NRH2) | 90
Mast/stem cell growth factor receptor Kit (KIT, Homo sapiens, UniProt P10721, V559D/V654A) | 84
Serine/threonine-protein kinase TAO1 (TAOK1, Homo sapiens, UniProt Q7L7X3) | 100

Excerpt of the above (set 2):
target | remaining activity [%]
Fibroblast growth factor receptor 1 (FGFR1, Homo sapiens, UniProt P11362) | 99.4
MAP kinase-activated protein kinase 2 (MAPKAPK2, Homo sapiens, UniProt P49137) | 101
Glycogen synthase kinase-3 beta (GSK3B, Homo sapiens, UniProt P49841) | 19.7
